Results collected from several papers.
Lines come from different studies, so protocols differ. Values joined by “and” are separate records of one study, mostly repeats; a detail may differ. ± marks the error that the study gave.

N#Cc1ccc2c(c1)[C@H]1CCCN(C(=O)c3ccc4[nH]cnc4c3)[C@H]1C2 — result for “pre-dose plasma concentration”: 2310 nmol/L (human, plasma; 240 mg once daily, day 7).
For N=C(N)NCCNC(=O)C1(Nc2ccccc2)CCN(Cc2ccccc2)CC1, the clearance was 1 ± 0.1 L/h (Sprague-Dawley rats (both sexes), plasma; oral, 50 mg/kg).
Under “participants with any TEAE”, CN1C(=O)[C@@H](NC(=O)c2nnc(Cc3ccccc3)[nH]2)COc2cccnc21 is recorded as 16.7% (phase I single ascending dose; human, male and female; oral, 100 mg, fasted).
COc1ccc2[nH]c([S+]([O-])Cc3ncc(C)c(OC)c3C)nc2c1 (centres unmarked) has a R/S ratio of 0.67 (human male, plasma and dried plasma spots; oral, 5 mg, 4 h, baseline session).
COc1cccc(OC)c1-c1cc(C(=O)NC2(C(=O)O)C3CC4CC(C3)CC2C4)nn1-c1ccc(C(=O)N(C)CCCN(C)CCCN(C)C(=O)CN2CCN(CC(=O)[O-])CCN(CC(=O)[O-])CCN(CC(=O)[O-])CC2)cc1C(C)C.[177Lu+3] (centres unmarked) has a tissue uptake of 3.2 %ID/g (mouse HT-29 xenograft, small intestine; 4 h post injection, biodistribution).
Cc1cccc(Cn2cc(CO)c3cnccc32)c1 gave an ALT of 62 U/L and 79 U/L and 71 U/L (F344 rat, male, serum; oral, 100 mg/kg/day, 2 days).
With COc1c(O)c(C)cc2c1C(=O)c1c(ccc(O)c1O)C2=O the cell viability was 77.7 ± 8.08% (HepaRG co-cultured with HK-2; MTT; 133.33 µM, 24 h; reference: untreated control).
CN(C)C(=O)CCc1nc(-c2ccccc2)c(-c2ccccc2)o1 has a confluence of 0.86 ± 0.06 (COS-7; 100 µM, 24 h, 0.1% DMSO, unit not given; reference: control).
COc1cc2c3c(n(CCCN4CCOCC4)c(=O)c2cc1OC)-c1cc2c(cc1C3=O)OCO2 has a clearance of 29 L/h/m² (Fischer 344 rat, female, plasma; intravenous bolus, 24 mg/m^2).
O=C(O)[C@H]1O[C@@H](Oc2cc(O)c3c(=O)c(O)c(-c4ccc(O)c(O)c4)oc3c2)[C@H](O)[C@@H](O)[C@@H]1O has a plasma concentration of 707 nM (human plasma; mean).
For CO[C@@H]1[C@H](OC(=O)N2CC(CCN3CCOCC3)C2)CC[C@]2(CO2)[C@H]1[C@@]1(C)O[C@@H]1CC=C(C)C, “international normalized ratio” read 0.01 ± 0.03 (humans; subcutaneous, 0.6 mg twice weekly for 4 weeks, day 28; reference: baseline).
O=S(=O)(O)Oc1cc(O)cc(/C=C/c2ccc(O)cc2)c1 — result for “samples above LOQ”: 100% (human, plasma).
The cell viability of CC(=O)c1c(C)cc2cc(O)cc(O[C@@H]3O[C@H](CO)[C@@H](O)[C@H](O)[C@H]3O)c2c1O is reported as 85.5 ± 12.7% (HepaRG co-cultured with HK-2; MTT; 133.33 µM, 24 h; reference: untreated control).
N#Cc1ccc2c(c1)[C@H]1CCCN(C(=O)c3ccc4[nH]cnc4c3)[C@H]1C2: “ACTH level change” 4.3 pmol/L (human; 20 mg, day 7; reference: baseline).
N#CCNC(=O)c1ccc(-c2ccnc(Nc3ccc(N4CCOCC4=O)cc3)n2)cc1: “AUCtau geometric mean ratio” 124% (healthy volunteers, plasma; dose not given, together with: ritonavir multiple-dose; reference: with ritonavir over alone).
Cl.[2H]C([2H])([2H])CC(=O)c1cnc(NC(=O)C2CC2)cc1Nc1cccc(-c2ncn(C([2H])([2H])[2H])n2)c1OC gave an AUC(0-tau) of 1570 ng·h/mL (geometric mean; human; oral, 20 mg twice daily, day 7, fed, liquid, multiple dose).
CCn1cc(C(=O)O)c(=O)c2cnc(N3CCNCC3)nc21 has an amount permeated of 4.81 nmol (starch gel membrane permeability; Gram-negative envelope surrogate; 200 µM, 90 min, pH 7.4).
COc1ccc(C(=O)O)c(O)c1 gave a plasma concentration of 132 nM (human plasma; median).
Under “AUC extrapolated fraction”, CCc1cc(C(=O)NC)c2nccc(N3CCc4c(cc(Cn5ccnc5)cc4-c4cn(C)nc4C(F)(F)F)C3=O)c2c1 is recorded as 0.3% (Sprague Dawley rat, male, plasma; oral, 50 mg/kg single dose, day 1, toxicokinetic satellite group).
For COc1ccc2c(c1)CN(C(=O)CCN1CCC(Cc3ccccc3)CC1)CC[S@@+]2[O-], “systolic blood pressure” read 143 ± 19 mmHg (telemetry; conscious male beagle dogs; intravenous, NG, 2 h).
CO[C@@H]1[C@@H](OC(N)=O)[C@@H](O)[C@H](Oc2ccc3c(O)c(NC(=O)c4ccc(O)c(CC=C(C)C)c4)c(=O)oc3c2C)OC1(C)C has an amount permeated of 1.92 nmol (starch gel membrane permeability; Gram-negative envelope surrogate; 200 µM, 60 min, pH 7.4).
CC(C)(c1ccc(O)cc1)c1ccc(O)cc1: “uptake per embryo” roughly 0.025 fmol (HPLC-MS; zebrafish embryos, whole embryo; waterborne, 1 nM, 50 h, from 8 to 58 hpf).
For Cc1nc2c(Cl)cccn2c1NC(=O)c1ccc(-c2ccc(N(C)C)cc2)o1, the metabolic activity was 0.94 ± 0.06 (COS-7; WST-8; 10 µM, 24 h, 0.1% DMSO, unit not given; reference: vehicle control).

Some of these lines once more:
For COc1ccc2c(c1)CN(C(=O)CCN1CCC(Cc3ccccc3)CC1)CC[S@@+]2[O-], “systolic blood pressure” read 143 ± 19 mmHg (telemetry; conscious male beagle dogs; intravenous, NG, 2 h).
CO[C@@H]1[C@@H](OC(N)=O)[C@@H](O)[C@H](Oc2ccc3c(O)c(NC(=O)c4ccc(O)c(CC=C(C)C)c4)c(=O)oc3c2C)OC1(C)C has an amount permeated of 1.92 nmol (starch gel membrane permeability; Gram-negative envelope surrogate; 200 µM, 60 min, pH 7.4).
CC(C)(c1ccc(O)cc1)c1ccc(O)cc1: “uptake per embryo” roughly 0.025 fmol (HPLC-MS; zebrafish embryos, whole embryo; waterborne, 1 nM, 50 h, from 8 to 58 hpf).
